Results collected from several papers.
Each line is one published result; not all experiments were run side by side. Values joined by “and” are separate records of one study, mostly repeats; a detail may differ. ± gives the spread as reported.
Organism: Leishmania infantum

Under “minimal parasiticidal concentration”, C/C(=C\c1ccco1)[N+](=O)[O-] is recorded as 8.3 ± 0.5 µM (motility arrest; promastigotes; 72 h, 26 °C).
CC(C)=CCCC1=CCC2C(=O)c3ccccc3C(=O)C2C1 (stereo not shown) has an EC50 of greater than 100 µM (intracellular amastigotes, ex vivo mouse splenic explants; 72 h).
With NNc1nnc(NN)c2ccccc12 the inhibition was 9.45% (parasite growth, MTT; 25 µM, promastigote).
For COC(=O)C1C(C=NO)=Cc2cc3c(cc2C1c1cc(OC)c(OC)c(OC)c1)OCO3 (stereo not shown), the EC50 was 61.3 µM (parasite growth; promastigote).
CC(C)=CCCC1=CCC2=C(C1)C(=O)c1ccccc1C2=O has a selectivity index of 3.2 (promastigotes; reference: HepG2 CC50 over promastigote EC50).
For CCOC(=O)c1c(C(=O)OC)cn(CC(c2cn(C)c3ccccc23)c2cn(C)c3ccccc23)c1C, the selectivity index was greater than 55 (THP-1, MHOM/TN/80/IPT1; 72 h; reference: CC50 over IC50).
For CC1(C)CCCc2cc3c(cc21)C(=O)C=CC3=O, the selectivity index was 11.2 (promastigotes; reference: HepG2 CC50 over promastigote EC50).
The EC50 of COC(=O)C1C(c2nc3cc(OC)ccc3[nH]2)=Cc2cc3c(cc2C1c1cc(OC)c(OC)c(OC)c1)OCO3 (stereo not shown) is reported as 34.3 µM (parasite growth; promastigote).
With CCOC(=O)c1cn(CC(c2c[nH]c3cc(Br)ccc23)c2c[nH]c3cc(Br)ccc23)c(C)c1C(=O)OC the selectivity index was 18.8 (THP-1, MHOM/TN/80/IPT1; 72 h; reference: CC50 over IC50).
CCOC(=O)c1c(C#N)c(-c2cn(C)c3ccccc23)n(NC(=O)OC(C)(C)C)c1C has a selectivity ratio of 3.7 (MHOM/TN/80/IPT1 promastigotes; reference: CC50 THP-1 over IC50 promastigotes).
COc1cc(C2c3cc4c(cc3C=C(C=O)C2C(=O)OCC=Cc2ccccc2)OCO4)cc(OC)c1OC (stereo not shown) gave an EC50 of 9.9 ± 0.5 µM (intracellular amastigote growth, iRFP fluorescence; infected mouse splenocyte explants; 48 h).
CCOC(=O)c1c(C#N)c(-c2c(C)[nH]c3ccccc23)n(NC(=O)OC(C)(C)C)c1C gave an inhibition of -48.9% (parasite growth; 20 µM, 72 h, promastigote).
For COc1cc([C@@H]2c3cc4c(cc3C=C(C=O)[C@H]2C(=O)N2CCCC2)OCO4)cc(OC)c1OC, the EC50 was greater than 100 µM (intracellular amastigote growth, iRFP fluorescence; infected mouse splenocyte explants; 48 h).
With COc1ccc(S(=O)(=O)Nc2cc(C#N)ccc2OS(=O)(=O)c2ccc(OC)cc2)cc1 the infected macrophages was 75% (U-937; 10 µM; reference: untreated).
The IC50 of O=C(Nc1ccc2c(c1)CN(c1ccc(Cl)cc1)C2=O)N1CCN(c2ccc(F)cc2)CC1 is reported as greater than 64 µM (parasite growth, Giemsa stain; primary peritoneal mouse macrophages, MHOM/MA(BE)/67 amastigotes; 5 d).
Under “minimal parasiticidal concentration”, O=[N+]([O-])/C=C/c1ccco1 is recorded as 12.6 ± 0.5 µM (motility arrest; promastigotes; 72 h, 26 °C).
CC1(C)NC(N)=Nc2nc3cc(Cl)c(Cl)cc3n21 has an EC50 of greater than 20 µM (parasite growth; 72 h, promastigote).
CCCCCc1cn(CCCCCCCCCCCOP(=O)([O-])OCC[N+](C)(C)C)nn1 gave a selectivity index of greater than 75 (THP-1; intracellular amastigotes; reference: CC50 THP-1 over IC50 amastigotes).
CNCCNC(=O)CN1C(=O)Cc2c([nH]c3ccc(Br)cc23)-c2ccc(Cl)cc21 has a selectivity ratio of 1 (intracellular amastigotes; reference: macrophage CC50 over amastigote EC50).
For Cc1ccc(N2Cc3cc(NC(=O)N4CCN(c5cccc(C(F)(F)F)c5)CC4)ccc3C2=O)cc1, the IC50 was greater than 64 µM (parasite growth, Giemsa stain; primary peritoneal mouse macrophages, MHOM/MA(BE)/67 amastigotes; 5 d).
For CC(=O)Oc1cc(C)c(OC(C)=O)c2c1CC=C(CCC=C(C)C)C2, the selectivity index was greater than 18.3 (promastigotes; reference: HepG2 CC50 over promastigote EC50).
The selectivity ratio of CCOC(=O)c1c(C#N)c(-c2c[nH]c3cccc(OCc4ccccc4)c23)n(NC(=O)OC(C)(C)C)c1C is reported as 4.5 and 5 and ~5 (MHOM/TN/80/IPT1 promastigotes; reference: CC50 THP-1 over IC50 promastigotes).
COC(=O)C1C(C=NN=CC2=Cc3cc4c(cc3C(c3cc(OC)c(OC)c(OC)c3)C2C(=O)OC)OCO4)=Cc2cc3c(cc2C1c1cc(OC)c(OC)c(OC)c1)OCO3 (stereo not shown) has an EC50 of greater than 100 µM (intracellular amastigote growth, iRFP fluorescence; infected mouse splenocyte explants; 48 h).
With CCOC(=O)Nn1c(C)c(C(=O)OCC)c(C#N)c1-c1c[nH]c2ccccc12 the inhibition was -91.5% (parasite growth; 20 µM, 72 h, promastigote).
O=C(Nc1ccc2c(c1)CN(c1ccccc1)C2=O)N1CCN(c2ccc(F)cc2)CC1 gave an IC50 of 45.2 µM (parasite growth, imaging; intracellular, amastigote).
The EC50 of COC1=CC(=O)c2cc3c(cc2C1=O)CCCC3(C)C is reported as 14.2 ± 2.5 µM (intracellular amastigotes, ex vivo mouse splenic explants; 72 h).
The EC50 of COc1cc(C2c3cc4c(cc3C(C(C)C)C3COC(=O)C23)OCO4)cc(OC)c1OC (stereo not shown) is reported as 23.2 µM (parasite growth; promastigote).
The EC50 of CCOC1=CC(=O)c2cc3c(cc2C1=O)CCCC3(C)C is reported as 14.8 ± 1.9 µM (intracellular amastigotes, ex vivo mouse splenic explants; 72 h).
With CCOC(=O)c1c(C#N)c(-c2c[nH]c3ccc(C)cc23)n(NC(=O)OC(C)(C)C)c1C the inhibition was -4.1% (parasite growth; 20 µM, 72 h, promastigote).
The EC50 of COC(=O)C1C(c2nc3ncccc3[nH]2)=Cc2cc3c(cc2C1c1cc(OC)c(OC)c(OC)c1)OCO3 (stereo not shown) is reported as 21.2 µM (parasite growth; mouse Splenocyte; 48 h, intracellular, amastigote).
For COc1cc(OC(C)=O)c2cc3c(cc2c1OC(C)=O)CCCC3(C)C, the EC50 was 19.3 ± 1.6 µM (intracellular amastigotes, ex vivo mouse splenic explants; 72 h).

Excerpt of the above:
Under “minimal parasiticidal concentration”, O=[N+]([O-])/C=C/c1ccco1 is recorded as 12.6 ± 0.5 µM (motility arrest; promastigotes; 72 h, 26 °C).
With NNc1nnc(NN)c2ccccc12 the inhibition was 9.45% (parasite growth, MTT; 25 µM, promastigote).
CCCCCc1cn(CCCCCCCCCCCOP(=O)([O-])OCC[N+](C)(C)C)nn1 gave a selectivity index of greater than 75 (THP-1; intracellular amastigotes; reference: CC50 THP-1 over IC50 amastigotes).
CC1(C)NC(N)=Nc2nc3cc(Cl)c(Cl)cc3n21 has an EC50 of greater than 20 µM (parasite growth; 72 h, promastigote).
With CCOC(=O)c1cn(CC(c2c[nH]c3cc(Br)ccc23)c2c[nH]c3cc(Br)ccc23)c(C)c1C(=O)OC the selectivity index was 18.8 (THP-1, MHOM/TN/80/IPT1; 72 h; reference: CC50 over IC50).
